Experimental data collected from several papers.
Compare with care: the assays were run in different laboratories. ± marks the error that the study gave.

`O=C(N1CCCC1)n1cc(-c2ccc(-c3ccccc3)cc2)nn1` gave an SILAC ratio of 1 ± 0.07 (mouse T-cells; N-terminal labeled proteins, N-terminal enrichment proteomics, refers to: TPI1; 1 nM, 6 h; reference: DMSO).
With `Cc1ccc(C(C)C)cc1.[Au][S]C1=NCCS1.[Cl][Ru][Cl].c1ccc(P(CP(c2ccccc2)c2ccccc2)c2ccccc2)cc1` the IC75 was 12.3 ± 0.2 µM (HCT-116; cell growth, trypan blue exclusion; 48 h, DMSO 1%).
Under “increase in protein level”, `Cc1nc(C)c(C=[N+]([O-])C(C)(C)C)nc1C` is recorded as 85.3% (primary rat midbrain neurons; Western blot, refers to: SIRT1; 100 µM, with: 20 µM MPP+).
`COc1ccc([C@@H]2CC(=O)c3c(O)cc(O[C@@H]4O[C@H](CO[C@@H]5O[C@@H](C)[C@H](O)[C@@H](O)[C@H]5O)[C@@H](O[C@H]5O[C@H](CO)[C@@H](O)[C@H](O)[C@H]5O)[C@H](O)[C@H]4O)cc3O2)cc1O` has a viability of 47.5% (A549; cell growth or viability, MTS; 100 µg/mL, 24 h).
`COC(=O)CCNC(=O)CNC(=O)CCn1nc(Cc2ccccc2)c2ccccc2c1=O` — result for “G2 phase cells”: 20.4% (HCT-116; concentration not given).
`C[C@H](N)C(=O)N[C@@H](Cc1c[nH]c2ccccc12)C(=O)N[C@@H](CCC(N)=O)C(=O)N[C@@H](Cc1c[nH]c2ccccc12)C(=O)N[C@@H](CCCNC(=N)N)C(=O)N[C@@H](Cc1c[nH]c2ccccc12)C(=O)N[C@@H](CCC(N)=O)C(=O)N[C@@H](Cc1c[nH]c2ccccc12)C(=O)N[C@@H](CCCNC(=N)N)C(N)=O` has a viability of 53 ± 4% (MDA-MB-468; MTT; concentration not given, 2 h, 37 °C, 5% FBS; reference: untreated cells).
The growth percent of `COc1cc(CNC(=O)C[C@H](C)CCC=C(C)C)ccc1OCc1cn(-c2ccccc2[N+](=O)[O-])nn1` is reported as 78% (COLO 205; SRB; 10 µM, 48 h).
`O=C(CSc1nc2ccccc2s1)Nc1nonc1[N+](=O)[O-]`: “overlap with Myc targets” 15.2% (Ramos; LFQ mass spectrometry; 10 µM, 8 h).
For `COc1ccc(NC(=O)COc2ccc(/C=C/C(C)=N/O)cc2OC)cc1`, “ROS positive cells” read 77.7% (SH-SY5Y; DCFDA flow cytometry; 2.5 µM, with: amyloid beta 10 µM).
For `COc1cc(CNC(=O)C[C@H](C)CCC=C(C)C)ccc1OCc1cn(-c2cccc(C(F)(F)F)c2)nn1`, the growth percent was 75.7% (UO-31; SRB; 10 µM, 48 h).
`NS(=O)(=O)c1ccc(-n2cc(Cn3c(=O)c(Cc4ccccc4)nc4ccccc43)nn2)cc1` has a selectivity index of 6.65 (HCT-116; MTT; reference: HCT-116 over normal colonocytes).
For `COc1cc(CNC(=O)C[C@H](C)CCC=C(C)C)ccc1OCc1cn(-c2ccccc2Cl)nn1`, the growth percent was 71.7% (COLO 205; SRB; 10 µM, 48 h).
`O=C(Cn1c(=O)c(Cc2ccccc2)nc2ccccc21)OCCNCCO` has a mRNA level of 4.114 ± 0.015 fold (HCT-116; qRT-PCR, refers to: BAX; concentration not given, 72 h; reference: untreated).
`CC(=O)Oc1ccccc1C(=O)[O][Pt]([NH2])([NH2])([Cl])([Cl])[O]C(=O)CCCc1ccccc1`: “IC50 fold lower” 27 fold (six human cancer lines; cytotoxicity, MTT; reference: cisplatin).
`CNC(=O)c1ccccc1Oc1nc(Nc2cc(OC)c(OC)c(OC)c2)ncc1Br` — result for “Akt pathway phosphorylation”: “no effect” (rat primary adipocytes; immunoblot, refers to: phospho-Akt, AS160, GSK3α/β; dose not given, with: insulin 10 nM).
For `CC[C@H](C(=O)N1CCCC[C@H]1C(=O)O[C@H](CCc1ccc(OC)c(OC)c1)c1cccc(OCC(=O)NCCOCCOCCN(C)C/C=C/C(=O)Nc2cc3c(Nc4ccc(F)c(Cl)c4)ncnc3cc2OC)c1)c1cc(OC)c(OC)c(OC)c1`, “decrease in viability” read 94.1% (NCI-H1975 FKBP12 F36V-PTPN2 knock-in; degrader, CellTiter-Glo; 5 µM, 4 days).
`COc1cc(CNC(=O)C[C@H](C)CCC=C(C)C)ccc1OCc1cn(-c2ccccc2F)nn1` has a growth percent of 71.9% (UO-31; SRB; 10 µM, 48 h).
`COc1cc(/C=C/c2cc(C)n[nH]2)ccc1O`: “reduction in ROS level” 30% (CHO; DCF-DA; 10 µM, 2 h pretreatment, read 30 min post-irradiation, with: 2 Gy radiation; reference: irradiated control).
`COc1ncccc1CN(C(=O)OCc1ccc([N+](=O)[O-])cc1)[C@H]1C[C@@H]1c1ccccc1` (racemic) gave a selectivity ratio of 4 ± 1 (THP-1 cells; colony forming unit; reference: EC50 wild type over NTR-expressing).
`CC(=O)N1CCC[C@H]1C(=O)N[C@@H](CC/C=C/C(=O)N(C)C)C(=O)N[C@@H](CCNC(=O)CCCCCN1C(=CC=CC=CC2=[N+](C)c3ccc(S(=O)(=O)[O-])cc3C2(C)C)C(C)(C)c2cc(S(=O)(=O)O)ccc21)C(=O)N1CCC[C@H]1C(=O)N[C@@H](Cc1ccccc1)C(N)=O`: “Pearson colocalization coefficient” 0.79 (NRK cells; refers to: fluorescent α2-macroglobulin; 1 µM).
The growth of `COc1cc(CNC(=O)C[C@H](C)CCC=C(C)C)ccc1O` is reported as 94.5% (NCI/ADR-RES; SRB; 10 µM, 48 h).
With `CC/C=C\C/C=C\C/C=C\C/C=C\C/C=C\C/C=C\CCC(=O)Nc1ccn(C2OC(CO)C(O)C2(F)F)c(=O)n1` (centres unmarked) the TGI was 28.8 µM (OVCAR-4; NCI60 screen).
With `CO[C@H]1O[C@H](COC(c2ccccc2)(c2ccccc2)c2ccccc2)[C@@H](OS(=O)(=O)c2ccccc2)[C@H](OS(=O)(=O)c2ccccc2)[C@H]1OS(=O)(=O)c1ccccc1` the inhibition was 10.4% (Ehrlich; cell growth or viability, MTT; 500 µg/mL, 24 h).
`Cc1cc(O)cc(O)c1C(=O)c1c2c3c(c(O)cc(C)c3oc1=O)C(=O)c1c(O)cc(O)cc1-2` — result for Bax/Bcl-2 ratio: “increased” (Bel-7402; western blot; concentration not given, 12 h; reference: untreated).
`N#Cc1ccc(C=O)o1` — result for “inhibition of sickling”: 48% (human sickle cell (SS) red blood cells; RBC morphology; 2 mM, 2 h, 37 °C, hypoxia 2.5% O2, haematocrit 20%; reference: untreated).
`CC(=O)OC[C@H]1O[C@@H](Sc2sc(C(=O)c3ccc(Br)cc3)c(N)c2-c2nc3ccccc3s2)[C@H](OC(C)=O)[C@@H](OC(C)=O)[C@@H]1OC(C)=O` gave a growth of 20% (Malme-3M; SRB; 10 µM, 48 h; reference: untreated).
With `CC(Cc1ccc(Cl)cc1)=C(c1ccc(Cl)cc1)c1ccc(OCCN(C)C)cc1` the GI50 was 5310 nM (NCI-H522; cell growth or viability, SRB).
The growth of `COc1cc(CNC(=O)C[C@H](C)CCC=C(C)C)ccc1OCc1cn(-c2cccc(Cl)c2)nn1` is reported as 99.2% (NCI/ADR-RES; SRB; 10 µM, 48 h).
For `Cc1ccc(C(C)C)cc1.[Cl-].[Cl][Ru+].[Ru+].c1ccc(-c2cn(CCCCOc3ccccc3-c3nc4ccccc4s3)nn2)nc1`, “early apoptotic cells” read 8.68% (MCF7; annexin V/PI flow cytometry; 8 µM, 24 h).
`COc1ccc(NC(=O)N/N=C2\CC3(CCN(C)CC3)Oc3ccccc32)cc1` has an apoptotic cells of 16.3% (HCT-116; annexin V-FITC/PI; concentration not given, 24 h, Late apoptosis).
For `COc1ccc2nc3ccc(OC)cc3c(SCCCN)c2c1`, proteasome activity read “decreased” (primary CD138+ myeloma cells; human; 10 µM, 2 h).
`CC(C)Cc1ccc(C(C)C(=O)[O][Pt]([NH2])([NH2])([Cl])([Cl])[O]C(=O)CCCc2ccccc2)cc1` (centres unmarked) — result for “IC50 fold lower”: roughly 3 fold (six human cancer lines; cytotoxicity, MTT; reference: oxaliplatin).
Under “log2 fold change”, `O=Cc1c(O)ccc2ccccc12` is recorded as 4.47 (HUVEC; RNA sequencing, refers to: ATF3; 75 µM, 24 h; reference: DMSO).
With `CC(C)c1cnn2c(NCc3ccccc3)cc(N[C@@H](CO)[C@H](O)CO)nc12` the GI50 ratio was greater than 2 (MCF7/MX (ABCG2-overexpressing); cell growth, sulforhodamine B; reference: MCF7/MX over parental MCF7).
For `COC(=O)C1NC(c2ccc[n+](C)c2)C23c4c5c6c7c8c9c(c%10c%11c2c2c4c4c%12c5c5c6c6c8c8c%13c9c9c%10c%10c%11c%11c2c2c4c4c%12c%12c5c5c6c8c6c8c%13c9c9c%10c%10c%11c2c2c4c4c%12c5c6c5c8c9c%10c2c45)C713` (centres unmarked), the CC50 was 9.7 µM (BC-3; cell growth or viability; 24 h).
`Cc1c(C)c(C)[c-](C)c1C.[C-]#[O+].[C-]#[O+].[C-]#[O+].[Cl-].[Cl-].[Cl-].[Ir+3].[Re+].c1cnc(-c2ncccn2)nc1` — result for “cells with depolarised mitochondria”: 62.2% (MDA-MB-468; JC-1 flow cytometry; 50 µM).
`N=C(N)NCCC[C@H](NC(=O)[C@H](Cc1c[nH]c2ccccc12)NC(=O)[C@H](CCC(N)=O)NC(=O)[C@H](Cc1c[nH]c2ccccc12)NC(=O)[C@H](CCCNC(=N)N)NC(=O)[C@H](Cc1c[nH]c2ccccc12)NC(=O)[C@H](CCC(N)=O)NC(=O)[C@H](Cc1c[nH]c2ccccc12)NC(=O)[C@@H](N)CCCNC(=N)N)C(N)=O` has a viability of 97 ± 5% (young human fibroblasts primary; MTT; concentration not given, 2 h, 37 °C, 5% FBS; reference: untreated cells).
With `COc1ccc([C@@H]2CC(=O)c3c(O)cc(O[C@@H]4O[C@H](CO[C@@H]5O[C@@H](C)[C@H](O)[C@@H](O)[C@H]5O)[C@@H](O)[C@H](O)[C@H]4O)cc3O2)cc1O` the gap closure was 0% (A549; cell migration, scratch; 100 µg/mL, 0 h).
Under “clonogenic survival decrease”, `CC(C)[C@@H]1NC(=O)[C@@H](Cc2ccccc2)NC(=O)[C@H](CC(=O)O)NC(=O)CNC(=O)[C@H](CCCNC(=N)N)NC1=O` is recorded as 7% (B16-F1; 0.1 µM, 3 h; reference: untreated).
For `COC1CN([C@H]2CC[C@H]([C@@]3(C)Oc4c(Cl)cc(C(=O)NCc5c(SC)cc(C)[nH]c5=O)c(C)c4O3)CC2)C1`, the GI50 was greater than 1000 nM (BFTC-905; cell growth or viability, ATP luminescence; 12 days).
With `COc1cc(CNC(=O)C[C@H](C)CCC=C(C)C)ccc1OCc1cn(-c2ccc([N+](=O)[O-])cc2)nn1` the growth percent was 42.1% (UO-31; SRB; 10 µM, 48 h).
For `C=CC(OC(C)=O)c1ccc(OC(C)=O)c(OC)c1` (centres unmarked), “cleaved PARP level” read 4.8 fold (MDA-MB-231; Western blot; IC50, 24 h; reference: untreated).
`O=C1Nc2ccc(Cl)cc2C1=Cc1c(Cl)[nH]c2c1ccc1ccccc12` gave a TGI of 8.91 µM (prostate cancer subpanel of NCI-60; 48 h).
The caspase-3 level of `CSc1nc(Nc2ccc(/C(C)=N/NC(=O)c3ccc([N+](=O)[O-])cc3[N+](=O)[O-])cc2)c(C#N)c(-c2ccccc2)n1` is reported as 5.4 (HCT-116; ELISA; concentration not given, unit not given; reference: negative control).
For `COc1cc([C@@H]2c3cc4c(cc3[C@@H](OCc3cc(-c5cc(C#N)cc(C#N)c5)no3)[C@H]3COC(=O)C23)OCO4)cc(OC)c1OC` (some centres unmarked), the GI50 was 1030 nM (MIA PaCa-2; cell growth or viability, SRB; 48 h).
For `C=CC(OC(C)=O)c1cc(OC)c(OC(C)=O)c(OC)c1` (centres unmarked), “Bax protein level” read 2.9 fold (MDA-MB-231; Western blot; IC50, 24 h; reference: untreated).
The phototherapeutic index of `FC(F)(F)c1ccnc(-c2cc(C(F)(F)F)ccn2)c1.FC(F)(F)c1ccnc(-c2cc(C(F)(F)F)ccn2)c1.[Cl-].[Cl-].[Ru+2].c1csc(-c2ccc(-c3ccc(-c4nc5c6cccnc6c6ncccc6c5[nH]4)s3)s2)c1` is reported as 180 (SK-MEL-28; cell viability; hypoxia, with: green light 523 nm; reference: dark EC50 over light EC50).
For `CCOC(=O)CCCCC[C@@H]1NC(=O)[C@H]2CCCN2C(=O)[C@H](Cc2ccccc2)NC(=O)[C@H](Cc2ccccc2)NC1=O`, “intracellular PGRN level” read “no effect” (iPSC-derived NPCs; ELISA, refers to: progranulin; 1 µM, 18 h).
With `COc1cc(CNC(=O)C[C@H](C)CCC=C(C)C)ccc1OCc1cn(-c2ccc(Br)cc2)nn1` the growth percent was 47.3% (SNB-75 CNS cancer cells; SRB; 10 µM, 48 h).
`Cc1ccc(C(C)C)cc1.O=C(N=P(c1ccccc1)(c1ccccc1)c1ccccc1)c1ccccn1.[Cl-].[Cl][Ru+]` — result for protein level: “decreased” (MDA-MB-231 and HCC1806; western blot, refers to: M-CSF; IC20, 24 h).
